Experimental data from different studies.
A part holds a random share of what one study measured.
UniProt Q96L34, sequence (whole entry, looked up): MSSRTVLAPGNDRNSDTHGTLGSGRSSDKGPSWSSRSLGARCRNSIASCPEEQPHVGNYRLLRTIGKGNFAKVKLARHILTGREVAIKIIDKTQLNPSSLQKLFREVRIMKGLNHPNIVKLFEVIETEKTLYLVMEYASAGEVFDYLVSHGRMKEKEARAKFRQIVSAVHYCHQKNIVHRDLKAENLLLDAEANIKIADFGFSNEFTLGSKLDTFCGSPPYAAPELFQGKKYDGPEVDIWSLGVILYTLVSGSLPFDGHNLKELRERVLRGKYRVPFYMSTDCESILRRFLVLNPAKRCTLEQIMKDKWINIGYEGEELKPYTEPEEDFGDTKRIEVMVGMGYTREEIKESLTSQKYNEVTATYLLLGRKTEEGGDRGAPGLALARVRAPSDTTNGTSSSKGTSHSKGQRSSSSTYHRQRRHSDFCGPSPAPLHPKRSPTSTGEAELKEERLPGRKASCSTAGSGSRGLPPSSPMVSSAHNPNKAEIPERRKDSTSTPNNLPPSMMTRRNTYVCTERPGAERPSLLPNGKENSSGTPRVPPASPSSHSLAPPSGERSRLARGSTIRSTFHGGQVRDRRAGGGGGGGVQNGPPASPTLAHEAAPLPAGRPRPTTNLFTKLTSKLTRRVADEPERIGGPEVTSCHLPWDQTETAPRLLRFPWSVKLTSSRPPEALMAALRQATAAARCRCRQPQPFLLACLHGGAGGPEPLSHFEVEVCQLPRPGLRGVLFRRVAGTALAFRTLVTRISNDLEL
UniProt P51956, sequence (whole entry, looked up): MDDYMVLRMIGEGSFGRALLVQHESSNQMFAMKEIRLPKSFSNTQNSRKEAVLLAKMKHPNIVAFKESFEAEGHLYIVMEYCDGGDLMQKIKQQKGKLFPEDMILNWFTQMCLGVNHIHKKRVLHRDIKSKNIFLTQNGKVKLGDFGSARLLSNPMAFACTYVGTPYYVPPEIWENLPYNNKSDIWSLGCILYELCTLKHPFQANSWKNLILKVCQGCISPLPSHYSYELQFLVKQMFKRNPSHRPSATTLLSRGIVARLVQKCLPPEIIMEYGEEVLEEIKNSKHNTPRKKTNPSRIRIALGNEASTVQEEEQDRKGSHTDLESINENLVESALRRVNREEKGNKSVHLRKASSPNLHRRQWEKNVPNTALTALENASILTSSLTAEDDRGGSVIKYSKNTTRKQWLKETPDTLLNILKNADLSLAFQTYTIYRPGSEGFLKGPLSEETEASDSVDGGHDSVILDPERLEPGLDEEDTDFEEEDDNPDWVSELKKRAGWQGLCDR
UniProt Q96J92, sequence (whole entry, looked up): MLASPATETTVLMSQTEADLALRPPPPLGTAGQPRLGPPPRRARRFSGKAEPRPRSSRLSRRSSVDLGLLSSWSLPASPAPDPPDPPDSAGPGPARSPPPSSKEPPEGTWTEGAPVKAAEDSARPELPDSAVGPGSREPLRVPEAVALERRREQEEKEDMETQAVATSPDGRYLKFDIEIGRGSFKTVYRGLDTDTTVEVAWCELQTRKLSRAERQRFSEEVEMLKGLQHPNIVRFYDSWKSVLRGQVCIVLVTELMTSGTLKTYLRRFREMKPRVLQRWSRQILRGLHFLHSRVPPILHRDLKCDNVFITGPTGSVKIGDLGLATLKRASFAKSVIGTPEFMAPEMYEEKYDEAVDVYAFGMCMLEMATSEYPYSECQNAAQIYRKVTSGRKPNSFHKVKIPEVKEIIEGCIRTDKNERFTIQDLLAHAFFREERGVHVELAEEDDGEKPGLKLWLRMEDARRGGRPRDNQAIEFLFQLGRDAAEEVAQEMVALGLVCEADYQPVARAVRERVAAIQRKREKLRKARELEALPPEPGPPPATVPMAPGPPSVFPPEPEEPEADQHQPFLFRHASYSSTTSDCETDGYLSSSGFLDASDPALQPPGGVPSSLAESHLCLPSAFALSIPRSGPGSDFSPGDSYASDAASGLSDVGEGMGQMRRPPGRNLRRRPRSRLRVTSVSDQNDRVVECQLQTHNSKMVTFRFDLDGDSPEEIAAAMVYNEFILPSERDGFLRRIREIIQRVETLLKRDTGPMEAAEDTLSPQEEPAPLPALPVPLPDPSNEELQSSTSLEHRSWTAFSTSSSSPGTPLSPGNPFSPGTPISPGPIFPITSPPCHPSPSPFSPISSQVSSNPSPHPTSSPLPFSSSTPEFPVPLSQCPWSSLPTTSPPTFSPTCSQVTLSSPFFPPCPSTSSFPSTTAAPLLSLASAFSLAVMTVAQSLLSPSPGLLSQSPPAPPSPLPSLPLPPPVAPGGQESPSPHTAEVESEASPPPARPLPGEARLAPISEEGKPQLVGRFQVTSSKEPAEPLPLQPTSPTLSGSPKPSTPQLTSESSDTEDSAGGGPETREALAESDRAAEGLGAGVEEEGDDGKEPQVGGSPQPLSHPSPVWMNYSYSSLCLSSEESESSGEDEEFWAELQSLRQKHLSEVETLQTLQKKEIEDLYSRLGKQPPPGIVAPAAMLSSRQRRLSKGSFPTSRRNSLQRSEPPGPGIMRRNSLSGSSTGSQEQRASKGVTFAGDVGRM
UniProt Q8WXR4, sequence (whole entry, looked up): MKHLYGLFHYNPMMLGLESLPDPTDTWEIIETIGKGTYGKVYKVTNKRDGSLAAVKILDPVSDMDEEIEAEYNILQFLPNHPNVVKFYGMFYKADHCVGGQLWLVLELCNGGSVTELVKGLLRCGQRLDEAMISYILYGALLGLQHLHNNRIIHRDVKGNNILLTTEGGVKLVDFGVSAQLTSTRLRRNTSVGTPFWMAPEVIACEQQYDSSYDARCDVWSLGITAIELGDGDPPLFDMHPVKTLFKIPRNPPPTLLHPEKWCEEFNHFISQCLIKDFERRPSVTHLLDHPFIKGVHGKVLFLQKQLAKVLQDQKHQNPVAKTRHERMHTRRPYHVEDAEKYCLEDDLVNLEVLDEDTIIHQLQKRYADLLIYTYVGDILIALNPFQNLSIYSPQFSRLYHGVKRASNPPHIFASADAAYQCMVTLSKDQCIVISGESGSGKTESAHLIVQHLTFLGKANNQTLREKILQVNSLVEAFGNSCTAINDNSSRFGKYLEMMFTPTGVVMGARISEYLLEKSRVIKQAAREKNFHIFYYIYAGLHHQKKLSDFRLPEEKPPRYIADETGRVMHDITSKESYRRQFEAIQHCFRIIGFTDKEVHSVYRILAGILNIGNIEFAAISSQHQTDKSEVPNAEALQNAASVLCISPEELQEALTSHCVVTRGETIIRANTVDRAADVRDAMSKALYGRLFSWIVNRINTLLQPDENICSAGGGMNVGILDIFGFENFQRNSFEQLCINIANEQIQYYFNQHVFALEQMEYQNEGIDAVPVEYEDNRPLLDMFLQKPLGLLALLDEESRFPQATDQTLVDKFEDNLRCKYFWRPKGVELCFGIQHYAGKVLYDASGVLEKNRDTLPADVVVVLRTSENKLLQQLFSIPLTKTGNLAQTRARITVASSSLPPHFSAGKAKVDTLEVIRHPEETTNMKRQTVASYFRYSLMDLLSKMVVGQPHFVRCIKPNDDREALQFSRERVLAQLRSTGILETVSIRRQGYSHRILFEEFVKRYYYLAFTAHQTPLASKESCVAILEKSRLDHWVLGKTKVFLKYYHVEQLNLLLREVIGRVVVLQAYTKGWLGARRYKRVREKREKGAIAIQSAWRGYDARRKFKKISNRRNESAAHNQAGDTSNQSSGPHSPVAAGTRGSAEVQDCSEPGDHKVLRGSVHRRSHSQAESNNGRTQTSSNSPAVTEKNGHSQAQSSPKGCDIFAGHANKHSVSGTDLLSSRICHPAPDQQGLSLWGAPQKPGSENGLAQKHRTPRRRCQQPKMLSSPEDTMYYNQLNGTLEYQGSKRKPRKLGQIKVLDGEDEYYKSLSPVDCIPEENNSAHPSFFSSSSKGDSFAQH
UniProt Q15759, sequence (whole entry, looked up): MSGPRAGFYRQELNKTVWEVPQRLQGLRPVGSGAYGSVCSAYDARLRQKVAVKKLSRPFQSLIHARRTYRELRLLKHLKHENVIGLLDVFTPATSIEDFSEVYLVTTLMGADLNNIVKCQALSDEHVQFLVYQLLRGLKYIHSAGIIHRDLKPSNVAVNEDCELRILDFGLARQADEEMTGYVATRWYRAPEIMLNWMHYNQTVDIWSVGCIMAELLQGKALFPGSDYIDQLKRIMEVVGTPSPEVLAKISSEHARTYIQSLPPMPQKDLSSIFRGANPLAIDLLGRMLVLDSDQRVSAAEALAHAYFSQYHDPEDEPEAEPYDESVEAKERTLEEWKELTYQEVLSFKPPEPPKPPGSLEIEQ
UniProt P32298, sequence (whole entry, looked up): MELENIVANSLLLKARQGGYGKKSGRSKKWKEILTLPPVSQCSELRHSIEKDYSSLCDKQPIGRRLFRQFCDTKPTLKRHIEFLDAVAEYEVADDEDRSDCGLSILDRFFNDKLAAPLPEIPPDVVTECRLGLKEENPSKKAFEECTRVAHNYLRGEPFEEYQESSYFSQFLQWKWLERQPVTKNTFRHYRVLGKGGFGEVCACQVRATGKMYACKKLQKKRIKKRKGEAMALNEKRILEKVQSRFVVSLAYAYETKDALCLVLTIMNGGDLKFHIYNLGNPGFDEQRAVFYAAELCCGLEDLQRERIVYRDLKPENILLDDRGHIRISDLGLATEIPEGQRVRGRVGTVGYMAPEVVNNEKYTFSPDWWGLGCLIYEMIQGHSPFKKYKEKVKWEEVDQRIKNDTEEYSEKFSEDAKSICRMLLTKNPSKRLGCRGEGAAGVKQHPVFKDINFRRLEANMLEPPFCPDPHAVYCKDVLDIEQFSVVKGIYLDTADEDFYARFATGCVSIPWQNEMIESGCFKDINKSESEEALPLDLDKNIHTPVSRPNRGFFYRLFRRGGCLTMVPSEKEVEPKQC

Study 1
Cell line: mouse MPNST tumor cells
Technique: high-content nuclear imaging
Refers to: cell number
Concentration: 10 µM
Time: 12 h
Notes: mean of 2 replicates
Baseline: plate mean
Reading: higher = more cells
Quantity: nuclei count
O=C(NC/C=C/CN1CCN(c2cccc(Cl)c2Cl)CC1)c1ccc(-c2ccccn2)cc1: 0.0685 z-score
O=C(CCCCC(=O)Nc1c(I)cc(I)c(C(=O)O)c1I)Nc1c(I)cc(I)c(C(=O)O)c1I: -0.175 z-score
CN1CCCN=C1/C=C/c1cccc(O)c1: 0.119 z-score
CCOC(=O)c1ncc2[nH]c3cccc(OC(C)C)c3c2c1C: 3.03 z-score
COc1ccc2c(NC(=O)Nc3cccc(C(F)(F)F)n3)ccnc2c1: -1.49 z-score
Fc1ccc(Cl)cc1-c1nc(Nc2ccncc2)c2nccnc2n1: -0.465 z-score
O=C(Nc1cc(C(F)(F)F)cc(C(F)(F)F)c1)c1cnc(Cl)nc1C(F)(F)F: -0.717 z-score
CS(=O)(=O)c1ccc([C@@H](O)[C@@H](CO)NC(=O)C(Cl)Cl)cc1: 2.68 z-score

Study 2
Target: His6 tag
Technique: AlphaScreen counter screen
Concentration: concentration not given
Quantity: inhibition
O=C(Nc1c[nH]nc1-c1nc2ccc(CN3CCOCC3)cc2[nH]1)NC1CC1: 8.1%
O=c1[nH]c2ncc(-c3cccnc3)nc2n1C1CCCC1: 7.25%
c1cncc(-c2cnc3c(N4CCOCC4)nccn23)c1: 8%
COC(=O)c1sc2nc[nH]c(=O)c2c1C: 4.35%
O=C1NC(=O)C(=Cc2ccc(-c3cc(Cl)ccc3Cl)o2)S1: -10.1%
O=C(O)CCSc1nnc2c(n1)[nH]c1ccccc12: -8.8%
CCOC(=O)N1CCN(c2nc(N)nc3[nH]cnc23)CC1: 10.5%

Study 3
SMILES: CN(C)C[C@H]1CCn2c(c(C3=C(c4cn(C)c5ccccc45)C(=O)NC3=O)c3ccccc32)C1
Observed: enzyme activity
Action: inhibitor
Concentration: 0.5 µM
Baseline: control
Quantity: remaining activity
MARK4 (Homo sapiens, UniProt Q96L34): 93.9%
NEK3 (Homo sapiens, UniProt P51956): 99.4%
MET (Homo sapiens, UniProt P08581): 96.2%
ROCK1 (Homo sapiens, UniProt Q13464): 106%
PLK3 (Homo sapiens, UniProt Q9H4B4): 100%
CAMK4 (Homo sapiens, UniProt Q16566): 95.5%
MAP2K1 (Homo sapiens, UniProt Q02750): 98.8%
PNCK (Homo sapiens, UniProt Q6P2M8): 95.2%
MINK1 (Homo sapiens, UniProt Q8N4C8): 97.8%
GRK4 (Homo sapiens, UniProt P32298): 76.4%
TLK2 (Homo sapiens, UniProt Q86UE8): 88.4%
MAPK11 (Homo sapiens, UniProt Q15759): 109%
Myosin-IIIb (MYO3B, Homo sapiens, UniProt Q8WXR4): 87.9%
KDR (Homo sapiens, UniProt P35968): 101%
CDC42BPB (Homo sapiens, UniProt Q9Y5S2): 103%

Study 4
Structure (SMILES): CCS(=O)(=O)c1cc2cc(C[C@@](O)(CC(C)(C)c3ccc(F)cc3C(N)=O)C(F)(F)F)[nH]c2cn1
Observed: cell-free assay
Technique: competition with immobilised ligand
Concentration: 1 µM
Quantity: remaining binding
MAPK4 (Homo sapiens, UniProt P31152): 84%
Tyrosine-protein kinase ABL1, phosphorylated (ABL1, Homo sapiens, UniProt P00519, Y253F): 72%
TAOK2 (Homo sapiens, UniProt Q9UL54): 76%
NEK9 (Homo sapiens, UniProt Q8TD19): 83%
WNK4 (Homo sapiens, UniProt Q96J92): 84%
WNK1 (Homo sapiens, UniProt Q9H4A3): 90%
CDC42BPA (Homo sapiens, UniProt Q5VT25): 100%
FLT3 (Homo sapiens, UniProt P36888, ITD): 78%

Some of these lines once more (study 2):
O=C(Nc1c[nH]nc1-c1nc2ccc(CN3CCOCC3)cc2[nH]1)NC1CC1: 8.1%
O=c1[nH]c2ncc(-c3cccnc3)nc2n1C1CCCC1: 7.25%
c1cncc(-c2cnc3c(N4CCOCC4)nccn23)c1: 8%
COC(=O)c1sc2nc[nH]c(=O)c2c1C: 4.35%
O=C1NC(=O)C(=Cc2ccc(-c3cc(Cl)ccc3Cl)o2)S1: -10.1%
O=C(O)CCSc1nnc2c(n1)[nH]c1ccccc12: -8.8%
